Results gathered from unrelated publications.
Lines come from different studies, so protocols differ. ± gives the spread as reported. Ends that are not written are not given here. * marks the point of attachment.

`CC(C)Oc1ccc(S(=O)(=O)c2ccc(Oc3cc(OCC(N)=O)c(C(=O)C(Cl)Cl)cc3[N+](=O)[O-])cc2)cc1` — result for “tumour growth inhibition”: 66.6% (NCI-H1299, female BALB/c nude mice, xenograft; intraperitoneal, 6 mg/kg once daily, 21 days).
For `CCN1C(=CC=CC=CC2=[N+](CCCCCC(=O)NCCN3C(=O)CC(SCCC(=O)NCCCC[C@H](NC(=O)CNC(=O)[C@H](Cc4c[nH]c5ccccc45)NC(=O)[C@H](CCCNC(=N)N)NC(=O)[C@@H](Cc4ccccc4)NC(=O)[C@H](Cc4c[nH]cn4)NC(=O)CCCc4ccccc4)C(N)=O)C3=O)c3ccc(S(=O)(=O)O)cc3C2(C)C)C(C)(C)c2cc(S(=O)(=O)[O-])ccc21` (stereo partly shown), “tumour fluorescence signal” read “decreased” (in vivo fluorescence imaging; nu/nu mice, A-375 xenograft, A-375 tumour, low MC1R; intravenous, 3 nmol/kg, 4 h; reference: A-375/MC1R tumour).
For `CCN(CC)c1ccc2nc3ccc(N=Nc4ccc(N(C)CCCC(=O)NCCCC[C@H](NC(=O)CNC(=O)[C@H](CCCNC(=N)N)NC(=O)[C@@H](NC(=O)CNC(=O)[C@H](CC(C)C)NC(=O)[C@@H]5CCCN5C(=O)CNC(=O)CCCCC[N+]5=C(C=CC=CC=C6N(CC)c7ccc8c(S(=O)(=O)[O-])cc(S(=O)(=O)O)cc8c7C6(C)C)C(C)(C)c6c5ccc5c(S(=O)(=O)[O-])cc(S(=O)(=O)O)cc65)C(C)C)C(=O)NCC(=O)NCC(=O)NCCOCCOCCOCCOCCOCCOCCOCCOCCOCCOCCOCCO)cc4)cc3[n+](-c3ccccc3)c2c1`, “tumour to background ratio” read 3.73 ± 0.31 (NIR fluorescence imaging; nude mice SCC-7 tumour; iv, 10 nmol, 2 h; reference: muscle).
Under “tumour growth inhibition”, `COc1cccc2c1C(=O)c1c(O)c3c(c(O)c1C2=O)C[C@@](O)(C(=O)CO)C[C@@H]3O[C@H]1C[C@H](N)[C@H](O)[C@H](C)O1` is recorded as 71.8% (BALB/c nude mice, HCT-8/ADR xenograft; intravenous, 2 mg/kg every two days, 22 d).
The tumour volume of `CC(=O)O[C@@]12CO[C@@H]1C[C@H](O)[C@@]1(C)C(=O)[C@H](O)C3=C(C)[C@@H](OC(=O)[C@H](O)[C@@H](NC(=O)OC(C)(C)C)c4ccccc4)C[C@@](O)([C@@H](OC(=O)c4ccccc4)[C@H]21)C3(C)C` is reported as 141 ± 53.6 mm3 (mice bearing PC-3 xenografts; 5 mg/kg once weekly, 18 days after inoculation, treated 3 weeks).
For `CCN(CC)CCCC(C)Nc1ccnc2cc(Cl)ccc12` (stereo not shown), the tumour weight was 0.94 ± 0.08 g (nude mice, ECa-109 xenograft; intraperitoneal, 60 mg/kg every other day, 2 weeks, added: sulforaphane 5 mg/kg).
The tumour volume of `COc1cccc2c1C(=O)c1c(O)c3c(c(O)c1C2=O)C[C@@](O)(C(=O)CO)C[C@@H]3O[C@H]1C[C@H](N)[C@H](O)[C@H](C)O1` is reported as 67.7 ± 9.07 mm3 (mice bearing T47D xenografts; 5 mg/kg once weekly, 13 days after inoculation, treated 2 weeks).
With `COc1cccc2c1C(=O)c1c(O)c3c(c(O)c1C2=O)C[C@@](O)(C(=O)CO)C[C@@H]3O[C@H]1C[C@H](N)[C@H](O)[C@H](C)O1` the tumour volume was 106 ± 59.6% (mice, BT-474 xenograft; intraperitoneal, 1.5 mg/kg, week 5, after fourth treatment; reference: pretreatment).
`Palmitoyl-PCSTSSMA (N-palmitoyl; Palmitoyl = CCCCCCCCCCCCCCCC(=O)*)` gave a tumour volume of 154 ± 27.1 mm³ (AsPC-1, male SCID mice, subcutaneous AsPC-1 xenograft; intratumoral, 500 µg/mouse/day, 3 weeks, PBS with 80% DMSO vehicle).
`CC(=O)O[C@@]12CO[C@@H]1C[C@H](O)[C@@]1(C)C(=O)[C@H](O)C3=C(C)[C@@H](OC(=O)[C@H](O)[C@@H](NC(=O)OC(C)(C)C)c4ccccc4)C[C@@](O)([C@@H](OC(=O)c4ccccc4)[C@H]21)C3(C)C` — result for “tumour growth inhibition”: 24% (mice, HCC70 xenograft; iv, 3.75 mg/kg).

For quick reference, copied from above:
Under “tumour growth inhibition”, `COc1cccc2c1C(=O)c1c(O)c3c(c(O)c1C2=O)C[C@@](O)(C(=O)CO)C[C@@H]3O[C@H]1C[C@H](N)[C@H](O)[C@H](C)O1` is recorded as 71.8% (BALB/c nude mice, HCT-8/ADR xenograft; intravenous, 2 mg/kg every two days, 22 d).
